# Measured values pooled from the literature.
# Protocols differ between the studies behind these lines. Numbers after ± are the reported error.
Structure (SMILES),test,test system,setting,scale,endpoint,result
CCCCCCCCCCCCCCCCC(=O)N[C@@H](CCCCN)C(=O)N[C@@H](CCCCN)C(=O)N[C@@H](CCCCN)C(=O)N[C@@H](CCCCN)C(=O)N[C@@H](CCCCN)C(N)=O,,Galleria mellonella larvae,"50 mg/kg, 4 d",,survival,80%
C[C@H]1N=C(c2ccccc2F)c2cc(Br)ccc2-n2cnc(C(=O)NCCS(=O)(=O)O)c21,,Swiss Webster mouse,"intravenous, 250 µg of parent drug, 0 to 48 h",relative to: dose,excretion in urine and feces,7.6 ± 3.2%
COc1cc(NC(=O)C(=O)c2c(C)n(Cc3ccc(Cl)cc3)c3ccc(C)cc23)ccn1,,"male cynomolgus monkey, plasma","oral, 10 mg/kg",,AUC,3.03 µg·h/mL
CC(C)[C@H](NC(=O)CNC(=O)[C@H](CCC(N)=O)NC(=O)[C@H](C)N)C(=O)O,Definitely drug-related,human,"20 mg/kg, 3 days, thrice daily dosing",,subjects with adverse events,0%
COC[C@@H](NC(C)=O)C(=O)NCc1ccc(OCc2ccc(Cl)cc2)cc1,behavioural toxicity,rat,oral,,TD50,> 500 mg/kg
CC[C@@H]1C[C@]1(NC(=O)[C@@H]1C[C@@]2(CN1C(=O)[C@@H](NC(=O)[C@@H](NC(=O)[C@@H]1CCCCN1C(C)C)C1CCCCC1)C(C)(C)C)C(C)(C)C21CCC1)C(=O)NS(=O)(=O)N1CCCC1,,human,"oral, 10 mg, with: ritonavir",relative to: without ritonavir,fold increase in exposure,~50 fold
CC[C@H](C)C(=O)N1CCC(NC(=O)Nc2ccc(OC(F)(F)F)c(F)c2)CC1,,healthy volunteers,"oral, 24 mg single dose",,subjects with serious TEAE,0%
O.[C-]#[O+].[C-]#[O+].[C-]#[O+].[Re+].c1ccc(-c2ccccn2)nc1,"RP-HPLC C18 column, measured: free diimine ligand","MeCN:water 40:60, 0.1% TFA",isocratic elution,,capacity factor,0.42
CCN(CC)CCOc1ccc(-c2nnn(Cc3ccc(OC)cc3)c2N)cc1,,"cynomolgus monkeys, plasma",120 min,,stability,stable
c1ccc(C2(CCNC3CCC4(SCCS4)c4ccccc43)CCOC3(CCCC3)C2)nc1 (stereo not drawn),,mice,"subcutaneous, 0.1 mg/kg",,AUC(0-24h),0.0189 µg·h/mL
CC(C)C[C@@H](N)C(=O)NCC(=O)N[C@H](C)C(=O)N[C@H](CO)C(=O)N[C@H](Cc1c[nH]c2ccccc12)C(=O)N[C@H](Cc1c[nH]cn1)C(=O)N[C@H](CCCNC(=N)N)C(=O)N1CCC[C@@H]1C(=O)N[C@H](CC(=O)O)C(=O)N[C@H](CCCCN)C(=O)N[C@H](CS)C(=O)N[C@H](CS)C(=O)N[C@H](CC(C)C)C(=O)NCC(=O)N[C@H](Cc1ccc(O)cc1)C(=O)N[C@H](CCC(N)=O)C(=O)N[C@H](CCCCN)C(=O)N[C@H](CCCNC(=N)N)C(=O)N1CCC[C@@H]1C(=O)N[C@H](CC(C)C)C(=O)N1CCC[C@@H]1C(N)=O,LC-MS/MS,rat plasma extract,"500 ng/mL, 4 h, 8 °C, autosampler storage",relative to: nominal,accuracy,97.3%
CC[C@H](C)[C@H](N)C(=O)N[C@H](C(=O)NCC(=O)N[C@H](C(=O)N[C@H](C(=O)N[C@@H](CC(=O)O)C(=O)N[C@@H](CO)C(=O)N[C@@H](CC(C)C)C(=O)N[C@H](C(=O)N[C@@H](CCCCN)C(=O)N[C@@H](Cc1c[nH]c2ccccc12)C(=O)N[C@H](C(=O)N[C@H](C(=O)N[C@@H](CC(=O)O)C(=O)N[C@H](C(=O)N[C@H](C(=O)N[C@@H](CC(N)=O)C(=O)N[C@@H](CCCCN)C(=O)N[C@@H](Cc1ccccc1)C(=O)N[C@H](C(=O)N[C@@H](CCCCN)C(=O)N[C@@H](CCCCN)C(=O)O)[C@@H](C)O)C(C)C)[C@@H](C)O)[C@@H](C)CC)[C@@H](C)CC)C(C)C)[C@@H](C)CC)[C@@H](C)O)[C@@H](C)CC,circular dichroism,POPC vesicles,pH 7.5,,fractional helicity,0.81
O=C(NCCCCCn1ccc2ccc(F)cc21)Oc1cccc(F)c1,,porcine liver S9 fraction,"20 µM, 30 min, with: BNPP 1 mM",,inhibition of degradation,45%
O=P1(NCCCl)NCCCO1 (stereo not drawn),,"rat, plasma","intravenous, 10 mg/kg CP, with: ketoconazole 0 mg/kg",,Cmax,184 ± 36.2 ng/mL
CC(C)(CCCC/C=C/CCCCCC(C)(C)C(=O)O)C(=O)O,,"rhesus monkey, male, hyperlipidaemic, plasma","oral, 20 mg/kg, first dose",,AUC(0-inf),5680 ± 1430 µg·h/mL
O=c1cc(-c2ccccc2)oc2c(Br)c(O)c(O)c(O)c12,,"C57BL/6 mouse, plasma","oral, 150 mg/kg, single dose",,Tmax,1 h
COC(=O)C[C@](O)(CCCC(C)(C)OC(C)=O)C(=O)O[C@@H]1C(OC)=C[C@]23CCCN2CCc2cc4c(cc2[C@H]13)OCO4,,"CD1 mouse, esophagus","subcutaneous, 1 mg/kg, 8 h",,concentration,not detected
CC[C@H](C)[C@H](NC(=O)[C@H](Cc1c[nH]cn1)NC(=O)[C@H](CCCCN)NC(=O)[C@H](C)NC(=O)[C@H](C)NC(=O)[C@H](Cc1c[nH]cn1)NC(=O)[C@H](CCCNC(=N)N)NC(=O)CNC(=O)[C@H](Cc1c[nH]cn1)NC(=O)[C@H](CCCCN)NC(=O)[C@H](Cc1ccccc1)NC(=O)[C@@H](NC(=O)[C@H](CO)NC(=O)CNC(=O)[C@H](Cc1c[nH]c2ccccc12)NC(=O)CN)[C@@H](C)CC)C(=O)NCC(=O)N[C@@H](Cc1c[nH]cn1)C(=O)N[C@@H](C)C(=O)N[C@@H](C)C(=O)N[C@H](C(=O)N[C@@H](CC(N)=O)C(=O)N[C@@H](Cc1c[nH]cn1)C(=O)N[C@@H](Cc1ccc(O)cc1)C(=O)N[C@@H](CC(C)C)C(N)=O)C(C)C,,zebrafish embryos,"1 h, 4, 28, 52 hpf",,acute toxic concentration,5 to 25 µg/mL
CN(C)C(CNC(=O)Nc1cc(C(F)(F)F)ccc1N1CCOCC1)c1ccncc1 (stereo not drawn),,"mouse, serum","intraperitoneal, 240 mg/kg single dose",,phosphorus,8 mg/dL
"O=C(c1ccc(F)cc1)C1CCN(C2Cc3c(cccc3OCC[18F])CC2O)CC1 (single isomer, unassigned; (-))",,"rat, brain",30 min,,tracer uptake,0.324 %ID/g
CC(C)C[C@H](NC(=O)[C@H](CCCCN)NC(=O)[C@H](CCC(=O)O)NC(=O)[C@H](C)NC(=O)[C@@H](NC(=O)[C@H](CCCCN)NC(=O)[C@H](CC(=O)O)NC(=O)[C@H](Cc1ccc(O)cc1)NC(=O)[C@H](Cc1ccccc1)NC(=O)[C@H](C)NC(=O)[C@H](CCCCN)NC(=O)[C@H](CC(C)C)NC(=O)[C@H](Cc1c[nH]c2ccccc12)NC(=O)[C@@H](N)CC(=O)O)C(C)C)C(=O)N[C@@H](CCCCN)C(=O)N[C@@H](CCC(=O)O)C(=O)N[C@@H](C)C(=O)N[C@@H](Cc1ccccc1)C(=O)N1CCC[C@H]1C(=O)N[C@@H](CC(=O)O)C(=O)N[C@@H](Cc1c[nH]c2ccccc12)C(=O)N[C@@H](C)C(=O)N[C@@H](CCCCN)C(=O)N[C@@H](C)C(=O)N[C@@H](C)C(=O)N[C@@H](Cc1ccc(O)cc1)C(=O)N[C@@H](CC(=O)O)C(=O)N[C@@H](CCCCN)C(=O)N[C@@H](C)C(=O)N[C@@H](C)C(=O)N[C@@H](CCC(=O)O)C(=O)N[C@@H](CCCCN)C(=O)N[C@@H](C)C(=O)N[C@@H](CCCCN)C(=O)N[C@@H](CCC(=O)O)C(=O)N[C@@H](C)C(=O)N[C@@H](C)C(=O)O,,"cynomolgus monkey female, plasma","intravenous infusion, 8 mg/kg, day 1, 30 min infusion",,AUC(0-inf),541 µg·h/mL
